Measured values pooled from the literature.
Compare with care: the assays were run in different laboratories.
Organism: Leishmania donovani

`CCOC(=O)CNC(=O)CN1C(=O)S/C(=C\c2ccc(OC)c(O)c2)C1=O` gave an IC50 of 0.88 µM (parasite growth; 24 h, intracellular, amastigote).
The IC50 of `CC(=O)Oc1ccc(Cn2cc(C)c(=O)[nH]c2=O)cc1C1OC(c2cccc(Cl)c2)=NN1C(C)=O` (centres unmarked) is reported as greater than 100 µM (parasite growth, SYBR Green; RAW264.7; intracellular, amastigote).
For `CC/C(=C\c1ccc(OCC(=O)NC(C(=O)N2CCSCC2)c2ccccc2)cc1)[N+](=O)[O-]` (centres unmarked), the IC50 was 1.55 µM (parasite growth, MTT; 72 h, promastigote).
`CC(C)OC(=O)/C=C/c1ccc(O)c([N+](=O)[O-])c1` has an IC50 of 1.7 µM (parasite growth; 70 h, amastigote).
With `CC(=O)Oc1ccc(Cn2ccc(=O)[nH]c2=O)cc1C1OC(c2ccc(Cl)cc2)=NN1C(C)=O` (centres unmarked) the IC50 was greater than 100 µM (parasite growth, SYBR Green; amastigote).
For `CCCCCCCCCC1CC2CCCC3CC(CCCCCCCCC)NC(=N1)N23` (centres unmarked), the IC50 was 2.78 µM (parasite growth, Alamar Blue; promastigotes).
With `CC(=O)Oc1ccc(Cn2cc(F)c(=O)[nH]c2=O)cc1C1OC(c2cccc(Cl)c2)=NN1C(C)=O` (centres unmarked) the IC50 was greater than 100 µM (parasite growth, SYBR Green; RAW264.7; intracellular, amastigote).
`CC(C)(C)OC(=O)/C=C/c1ccc(O)c([N+](=O)[O-])c1` gave an IC50 of 1.3 µM (parasite growth; 70 h, amastigote).
The IC50 of `CCOC(=O)C(CC)NC(=O)CN1C(=O)S/C(=C\c2ccc(C)cc2)C1=O` (centres unmarked) is reported as 0.54 µM (parasite growth; 24 h, intracellular, amastigote).
`CCCCCC1CC2CCCC3CC(C)N=C(N1)N32` (centres unmarked) gave an IC50 of 9.52 µM (parasite growth, Alamar Blue; promastigotes).
The IC50 of `CCn1cc(C(=O)NCCNCCO)c(=O)c2cc(OC)c(OCc3cccc(Br)c3)cc21` is reported as greater than 20 µM (Bob promastigotes; 120 h).
For `CCOC(=O)C(CC)NC(=O)CN1C(=O)S/C(=C\c2ccc([N+](=O)[O-])cc2)C1=O` (centres unmarked), the IC50 was greater than 10 µM (parasite growth; 24 h, intracellular, amastigote).
`CCn1cc(C(=O)NCCNCCO)c(=O)c2cc(OC)c(OCc3cccc(F)c3)cc21` gave an IC50 of greater than 20 µM (Bob promastigotes; 120 h).
`CCOC(=O)C(CC)NC(=O)CN1C(=O)S/C(=C\c2ccc(OC)cc2)C1=O` (centres unmarked) gave an IC50 of greater than 100 µM (parasite growth, resazurin; promastigote).
`CC(=O)Oc1ccc(Cn2cc(F)c(=O)[nH]c2=O)cc1C1OC(c2ccc(Cl)cc2)=NN1C(C)=O` (centres unmarked) gave an IC50 of greater than 19.2 µM (parasite growth, SYBR Green; RAW264.7; intracellular, amastigote).
`CC/C(=C\c1ccc(OCC(=O)NC(C(=O)N2CCOCC2)c2ccccc2)cc1)[N+](=O)[O-]` (centres unmarked) gave an IC50 of 14.4 µM (parasite growth, MTT; 72 h, promastigote).
With `COc1cc(O)c(-c2ccc(OC)c3c(OC)cc(C)cc23)c2c1[C@H](C)N(C)[C@H](C)C2` the IC50 was greater than 100 µM (MHOM/ET/67/L82, amastigotes).
The IC50 of `CCOC(=O)C(NC(=O)CN1C(=O)/C(=C/c2ccc([N+](=O)[O-])cc2)SC1=S)C(C)C` (centres unmarked) is reported as greater than 10 µM (parasite growth; 24 h, intracellular, amastigote).
For `CCCCOC(=O)/C=C/c1ccc(O)c(O)c1`, the IC50 was 0.64 µM (parasite growth; 70 h, amastigote).
`CC(=O)Oc1ccc(Cn2ccc(=O)[nH]c2=O)cc1C1OC(c2ccccc2)=NN1C(C)=O` (centres unmarked) has an IC50 of greater than 100 µM (parasite growth, SYBR Green; amastigote).
`COc1ccc(CCNC(=O)C(=O)[C@H](Cc2ccccc2)NC(=O)c2oc3cc(O)ccc3c(=O)c2C)cc1` has an IC50 of 10 µM (parasite growth; 72 h, promastigote).
`O=C1C=C(OCc2cn(-c3ccccc3)nn2)C(=O)c2ccccc21` has an IC50 of less than 10 µM (parasite growth, SYBR Green; amastigote).
For `CC(=O)Oc1ccc(Cn2cc(C)c(=O)[nH]c2=O)cc1C1OC(c2ccc(Cl)cc2)=NN1C(C)=O` (centres unmarked), the IC50 was greater than 100 µM (parasite growth, SYBR Green; RAW264.7; intracellular, amastigote).
The IC50 of `O=C1C(O)=C(I)C(=O)c2ccccc21` is reported as less than 10 µM (parasite growth, SYBR Green; amastigote).
`CCn1cc(C(=O)NCCNCCO)c(=O)c2cc(OCc3ccc(C(C)(C)C)cc3)c(Cl)cc21` has an IC50 of less than 3 µM (Bob promastigotes; 120 h).
`CCOC(=O)C(NC(=O)CN1C(=O)/C(=C/c2ccc3c(c2)OCO3)SC1=S)C(C)C` (centres unmarked) gave an IC50 of greater than 100 µM (parasite growth, resazurin; promastigote).
`CC(=O)Oc1ccc(Cn2cc(F)c(=O)[nH]c2=O)cc1C1OC(c2ccccc2)=NN1C(C)=O` (centres unmarked) has an IC50 of greater than 100 µM (parasite growth, SYBR Green; amastigote).
With `COc1ccc(CCNC(=O)C(=O)[C@H](Cc2ccccc2)NC(=O)c2oc3cc(OC)ccc3c(=O)c2C)cc1` the IC50 was 9.8 µM (parasite growth; 72 h, promastigote).
The IC50 of `CCOC(=O)C(C)NC(=O)CN1C(=O)N/C(=C\c2ccc(C)cc2)C1=O` (centres unmarked) is reported as greater than 10 µM (parasite growth; 24 h, intracellular, amastigote).
`CC(=O)Oc1ccc(Cn2ccc(=O)[nH]c2=O)cc1C1OC(c2cccc(Cl)c2)=NN1C(C)=O` (centres unmarked) has an IC50 of greater than 100 µM (parasite growth, SYBR Green; RAW264.7; intracellular, amastigote).
The IC50 of `COc1cc(O)c(-c2ccc(OC)c3c(O)cc(C)c(-c4cc(-c5c(O)cc(OC)c6c5C[C@@H](C)N[C@@H]6C)c5cc(C)cc(OC)c5c4O)c23)c2c1[C@@H](C)N(C)[C@H](C)C2` is reported as 59.5 µM (MHOM/ET/67/L82, amastigotes).
`Cc1nc(C(=O)N2CCC[C@@H]2C(=O)N[C@H](CCC2CCCCC2)C(=O)N[C@H](CC(C)C)C(=O)NC(C)(C)C(=O)N[C@H](CC(C)C)C(=O)N[C@H](CC(C)C)C(=O)NC(C)(C)C(=O)NC(C)(C)C(=O)NCCC(=O)NC2(CN(C)C)CCC2)co1` gave an IC50 of 0.0048 µM (resazurin; MHOM/ET/67/L-82 axenic amastigotes).

For quick reference, copied from above:
The IC50 of `CCOC(=O)C(CC)NC(=O)CN1C(=O)S/C(=C\c2ccc(C)cc2)C1=O` (centres unmarked) is reported as 0.54 µM (parasite growth; 24 h, intracellular, amastigote).
`CCCCCC1CC2CCCC3CC(C)N=C(N1)N32` (centres unmarked) gave an IC50 of 9.52 µM (parasite growth, Alamar Blue; promastigotes).
The IC50 of `CCn1cc(C(=O)NCCNCCO)c(=O)c2cc(OC)c(OCc3cccc(Br)c3)cc21` is reported as greater than 20 µM (Bob promastigotes; 120 h).
